Measured values from different studies.
Every numbered part comes from another study and shows a few of its results, in no order. Positions count from the first letter of the parent shown.

Block 1
Target: RNA binding protein fox-1 homolog 2, RRM domain, GST-SBP tag (RBFOX2, Homo sapiens, UniProt O43251-10, residues 100-194)
Method: RNA Bind-n-Seq
Form: RNA
Sample: in vitro
Tested at: 365 nM
Setting: natural RNA segment, single round, ends assumed
Reference: no-protein control
Reading: higher = stronger binding
Constant ends, left off below: GGGAGUUCUACAGUCCGACGAUC … UGGAAUUCUCGGGUGCCAA
Residues (chain): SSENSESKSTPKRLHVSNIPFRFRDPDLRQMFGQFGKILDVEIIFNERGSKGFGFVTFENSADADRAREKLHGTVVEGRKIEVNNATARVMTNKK
Oligonucleotide | RBNS enrichment (R)
CUAAGGCUGGCCCUAUUCCAUCCUUCUUCCUAGAUGAUGGGUGUGUUAAUGGGAGGAAGGAAAGAGACCCUGCCUAGGGAAGGUUGGCUUACAGCCACCCUUGCAAGAAG | 0.556
UGAGGGAGAGGGCAGACUCAGGUGGGAAGAUGUGCCAUGCGUAAGGCAUCAACGUGUAUCUGUGGGAUCUUCGUUGCCUUCAGUAAUCAGGGUGUGAAAAAAGCAGACAA | 0.743
UGUAUGCAGACACAUGAGCUGUGGGGUAACAAUCAAAACGUAAUCUUUCAUAGAUAGCCAUUACAUUUCUUUAAAUUUUUCAAUGCCGAUGUGUAUUCUAUAAGAGAAUA | 0.764
UACCUGCCCGACCCCUCCCCCACCAAGGUAUCUUGGGCUCCAGCCUCAGAGCCUGGACUAGUUCUGAGCAUGUGUCCCUCUGUGUAUAGUGAGGAAGUGAGAGCAGAGGC | 4.92
AAUGCUAAUAUUAAAAGUCACAAUGUUCUUUAUAUACAAUAAUGGAAAAAAAAAAAAGAGGAAAACCCUCAAGGGCAUGAGCAUUGGAUACAGCAGUAGACAUUUUAACA | 0.667
UGGGUAGUGUGUGACUGUGGCUGUACUGUAUAGUGAACAUAGUUGGCAUAUCUUUGUUUGAAGUUUGUUGGUGAUUCCACCAAACUGGUGUAAAAAACAAAAACAAAAAA | 0.85
ACAUUGACUGGGAAACCUGAGUGAGACCCAGCAACUGCUUCUCUCCCUUCUCUCUCCUGAGGUGAAGCUUUUCCAGGUUUUGUUGAAGAGAUACCUGCCAGCACUUCUGC | 0.264
CCACCAGCAGAUUAUAAUUUUGUCAGCAAUGCUAUUAUCUCUAAUUAGUGCCACCAGACUAGACCUGUAUCAUUCAUGGUAUAAAUUUUACUCUUGCAACAUAACUACCA | 0.596

Block 2
Target: CCNE2, cyclin fold, Cln2 fusion (human)
Method: yeast growth competition, sequencing
Sample: yeast
Setting: strong parent motif
Reference: not given
Reading: higher = stronger binding
Starting sequence: GMNC docking peptide (human); KNAKRNLSSEFAN; partner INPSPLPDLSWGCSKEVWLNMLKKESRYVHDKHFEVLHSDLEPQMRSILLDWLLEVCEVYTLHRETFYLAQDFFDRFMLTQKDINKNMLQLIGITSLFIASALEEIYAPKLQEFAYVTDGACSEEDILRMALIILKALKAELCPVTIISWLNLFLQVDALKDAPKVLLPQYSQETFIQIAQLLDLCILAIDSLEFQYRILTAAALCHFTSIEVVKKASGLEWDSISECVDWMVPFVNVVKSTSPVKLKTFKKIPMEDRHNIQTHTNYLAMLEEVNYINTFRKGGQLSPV
Variant | normalised enrichment score
N6T | 0.55
L7C | 0.0775
R5S | 0.435
K4Y | 0.532
E10V | 1.64
R5L | -0.000301
R5H | 0.527
S8H | 0.724
A12P | 0.457
F11P | -0.46
R5N | 0.475
R5T | 0.172
A3W | 1.37
E10F | 1.2
F11E | 0.251
N6D | 0.643
K4L | 0.552
E10N | 0.257
K4Q | 0.391
L7G | 0.652
N2K | 1.73
R5A | 0.209
S9Y | 1.95
N6G | 0.376
N6A | 0.396

Block 3
Target: Histone acetyltransferase KAT6A, winged helix 2, GST fusion (KAT6A, Homo sapiens, UniProt Q92794, residues 85-181)
Method: protein binding microarray
Form: double-stranded DNA, one strand shown
Sample: in vitro
Tested at: not given
Setting: 8-mer, flanks averaged, mean of 2 arrays, mostly near background
Reference: not given
Reading: higher = stronger binding
Residues (chain): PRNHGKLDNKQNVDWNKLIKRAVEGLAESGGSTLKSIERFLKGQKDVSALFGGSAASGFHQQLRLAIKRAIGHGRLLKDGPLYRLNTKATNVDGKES
Oligonucleotide | E-score
ACTGTCAT | -0.179
ATTTCAAA | 0.143
CATGGTAC | -0.113
CGTGGATC | -0.0713
CATGAGGA | -0.166
AAACGTAC | -0.141
ATGCCCAT | -0.00779
CATAACAC | -0.0493
CATGCACG | -0.0471
GTCGGGCA | 0.104
ATAGTACC | -0.146
ACCACAGC | 0.0272
GCAACCTA | -0.0856
CAGGTTTA | -0.143
TATCACAA | -0.0191
GAGGCTAC | -0.0312
CATGTTCG | -0.0949
AGGATCCT | -0.149
AGCTTTAC | -0.144

Block 4
Target: Interferon regulatory factor 5, full length, phosphomimetic (IRF5, Homo sapiens, UniProt Q13568-2, residues 1-514, S451D/S453D/S456D/S462D)
Method: protein-binding microarray
Form: double-stranded DNA, one strand shown
Sample: in vitro
Tested at: 940 nM top
Setting: 60-bp whole probe
With: salmon DNA 0.4 mg/ml
Reference: random background probes
Reading: higher = stronger binding
Constant ends, left off below: GCCTAGCAC … GTCTTGATTCGCTTGACGCTGCTG
Oligonucleotide | fitted relative affinity [z-score]
TTATATTTCGGGACTGGATTAGTGCTA | 0.482
TCAGTTTTCTTTTCATTACTGTGCTAG | 2.4
GGTCCTCTCTCTATTCAGAGGTGCTAG | 0.944
TCAATTTTTTTTATTTAACTGTGCTAG | 0.879
TGTGCTTTCCTGATGGTCCTGTGCTAG | 0.238
TTTCATTTTTTTTCATCATTGTGCTAG | 6.04
TCATCTGTGCCTTTTTTACTGTGCTAG | 0.517
TTAGATTCCAGACTGGATTAGTGCTAG | -0.556
GACGGTTTCCTTTCCCCGACGTGCTAG | 2.68
CCGAGAAACAGTAACCCTCTGTGCTAG | 0.511
TTAGAACTGGGATATCGATTAGTGCTA | -0.359
GACGGTATCCTTCTCCTGATGTGCTAG | 0.443
TACGATATCGGGTATCGAGACGTGCTA | 1.03
TTAGATCTCCTTTTCCTTTAGTGCTAG | 1.01
ATATATGTGTATATATAATAGTGCTAG | 0.344
TTAAGTCTCGGTCTCGGTTAGTGCTAG | 7.31
CTTTCTTTTATGCTCTTTCTGTGCTAG | 2.36
CTGCTAGGGCACACAAGTCAGTGCTAG | -0.946
TTGGGTTTCCTTATCCTTTAGTGCTAG | 1.47

Repeated from above (block 4):
Oligonucleotide | fitted relative affinity [z-score]
TTTCATTTTTTTTCATCATTGTGCTAG | 6.04
TCATCTGTGCCTTTTTTACTGTGCTAG | 0.517
TTAGATTCCAGACTGGATTAGTGCTAG | -0.556
GACGGTTTCCTTTCCCCGACGTGCTAG | 2.68
CCGAGAAACAGTAACCCTCTGTGCTAG | 0.511
TTAGAACTGGGATATCGATTAGTGCTA | -0.359
GACGGTATCCTTCTCCTGATGTGCTAG | 0.443
TACGATATCGGGTATCGAGACGTGCTA | 1.03
TTAGATCTCCTTTTCCTTTAGTGCTAG | 1.01
